# Measured values collected from several papers.
# Protocols differ between the studies behind these lines. ± gives the spread as reported.
Structure (SMILES),cell line,test,system,setting,how to read,quantity,result
COc1cc(/C=C/C(=O)O)ccc1O,BV-2,ELISA,,"10 µM, with: LPS 1.0 µg/mL",,TNF-α level,234 pg/mL
CCCCCCCCN(CCC(=O)Nc1ccccc1)C(=O)c1ccccn1,HGPS fibroblasts,immunofluorescence,,"2 µM, 408 h",baseline: vehicle,progerin mislocalisation,~36%
O=C(N[C@@H](Cc1coc2ccccc12)B(O)O)[C@@H]1C[C@H]2CC[C@@H]1O2,MM1.S,Caspase-Glo,,"concentration not given, 72 h",,caspase-3/7 activity,> 3.5 fold
O=C1Nc2ccccc2/C1=N\Nc1nnc2n1N=C(c1ccc(Cl)cc1)CS2,Hs-578T,"cell growth or viability, SRB",,10 µM,,inhibition,14%
C=CC(=O)Oc1ccc(Cl)cc1C(=O)Nc1ccc([N+](=O)[O-])cc1Cl,C4-2B MDVR cells,total cell number,,"0.5 µM, 5 days",,cell growth,decreased
Cn1nnc2c(C#N)ncn2c1=O,U-87 MG lacking MGMT,"cell viability, Alamar Blue",,"concentration not given, 7 days",baseline: temozolomide,fold loss of activity,10 fold
CCCC[C@H](NC(=O)[C@H](Cc1ccccc1)NC(=O)[C@H](Cc1c[nH]cn1)NC(=O)CCNC(=O)[C@@H](NC(=O)[C@H](C)NC(=O)[C@H](Cc1c[nH]c2ccccc12)NC(=O)[C@H](CCC(N)=O)NC(=O)[C@H](N)Cc1ccc(O)cc1)C(C)C)C(N)=O,NCI-H1299 expressing BRS-3,"EGFR transactivation, Western blot",,100 nM,,EGFR tyrosine phosphorylation,increased
CC(=O)OC[C@H]1O[C@@H](Sc2sc(C(=O)c3ccc(C)cc3)c(N)c2-c2nc3ccccc3s2)[C@H](OC(C)=O)[C@@H](OC(C)=O)[C@@H]1OC(C)=O,IGROV-1,SRB,,"10 µM, 48 h",baseline: untreated,growth,48.2%
O=C1OCC2=C1C(c1cccc(Br)c1)C1=C(N2)C(=O)c2ccccc2C1=O (stereo not drawn),SK-LU-1 cells,annexin V/PI,,"0.08 µM, 24 h",,necrotic cells,1.75%
O=C(CN1CCC(NC(=O)CSc2ccc(Cl)cc2)CC1)Nc1ccccc1,HEK293 NRF2 luciferase reporter,"NRF2 reporter gene, activator",,18 h,baseline: control,lowest active concentration,10 µM
COc1cc(CNC(=O)C[C@H](C)CCC=C(C)C)ccc1OCc1cn(-c2ccccc2[N+](=O)[O-])nn1,SF-539 CNS cancer cells,SRB,,"10 µM, 48 h",,growth percent,67%
CC[C@@]12CCc3[nH]c4ccccc4c3CCN(C[C@H]3O[C@H]31)C2,BV-2,NO production,,"6 µM, 1 h, 24 h stimulation, with: LPS 800 ng/mL",baseline: LPS control,inhibition,50.5 ± 3.5%
C[N+]1(CC(=O)OC2CCCCCCCCCCC2)CCCCC1,LNCaP expressing AR-V7,"cell viability, CellTiter Blue",,96 h,,ED20,3.5 µM
O=C1Nc2ccc(Cl)cc2C1=Cc1c(Cl)[nH]c2c1ccc1ccccc12,breast cancer subpanel of NCI-60,,,48 h,,TGI,5.62 µM
COC(=O)c1ccccc1-c1c2ccc(=O)cc-2oc2cc(OCCCCCCCC[P+](c3ccccc3)(c3ccccc3)c3ccccc3)ccc12,HeLa cells,confocal microscopy,mitochondria,100 nM,baseline: MitoTracker Deep Red,fluorescence ratio,0.521 ± 0.042
CC(Cc1ccc(Cl)cc1)=C(c1ccc(Cl)cc1)c1ccc(OCCN(C)C)cc1,Hs-578T,"cell growth or viability, SRB",,,,GI50,4.72 µM
CC(=O)N[C@H](C(=O)N[C@H](C(=O)N[C@@H](CCCNC(=N)N)C(=O)N1Cc2ccccc2C[C@H]1C(=O)N[C@@H](Cc1ccccc1)C(N)=O)C1CCCCC1)C(C)C,MBP-specific BC-3 T cells,"Bio-Plex multiplex, refers to: MCP-l(MCAF)",,"200 µg/mL, 24 h, with: MBP87-99 antigen",,cytokine level,2000 ± 1080 pg/mL
COc1cc(CNC(=O)C[C@H](C)CCC=C(C)C)ccc1OCc1cn(-c2ccccc2F)nn1,U-251 CNS cancer cells,SRB,,"10 µM, 48 h",,growth percent,61.6%
CCCC(CCC)C(=O)[O][Pt]([NH2])([NH2])([Cl])([Cl])[O]C(=O)c1ccccc1OC(C)=O,C13 and 2008,"cytotoxicity, MTT",,,baseline: IC50 C13 over IC50 2008,resistance factor,1.1
COc1cc(CNC(=O)C[C@H](C)CCC=C(C)C)ccc1OCc1cn(-c2ccc(C#N)cc2)nn1,SK-MEL-2 melanoma cells,SRB,,"10 µM, 48 h",,growth percent,80%
CC/C=C\C/C=C\C/C=C\C/C=C\C/C=C\C/C=C\CCC(=O)Nc1ccn(C2OC(CO)C(O)C2(F)F)c(=O)n1 (stereo not drawn),BT-549,,,,,total growth inhibition concentration,16.3 µM
COc1cc(CNC(=O)C[C@H](C)CCC=C(C)C)ccc1OCc1cn(-c2ccc(Cl)c(Cl)c2)nn1,U-251 CNS cancer cells,SRB,,"10 µM, 48 h",,growth percent,48.2%
N#Cc1cccc(/C=C/C(=O)c2ccc(O)cc2)c1,U-87 MG,,,concentration not given,baseline: gene set,downregulated E2F target genes,65%
COc1ccc(NC(=O)CCc2nc3cc(Cl)ccc3[nH]c2=O)cc1,MCF7,,,concentration not given,,active caspase-3 level,423 ± 11.2 pg/mL
COc1cc(CNC(=O)C[C@H](C)CCC=C(C)C)ccc1OCc1cn(-c2ccccc2Cl)nn1,U-251 CNS cancer cells,SRB,,"10 µM, 48 h",,growth percent,80.6%
CCNS(=O)(=O)c1ccc(COc2ccc3nc4ccc(=O)cc-4oc3c2)cc1,BT-549,"DDR2 signalling, Western blot",,"1 µM, 6 h, with: collagen I 2 mg/mL",,SNAIL1 protein stabilization,inhibited
O=C1CC(c2ccc(O)cc2)Oc2c1c(O)cc1oc3cc(O)c(O)cc3c21 (racemic),L02,MTT,,"10 µM, 2 h, with: H2O2 100 µM",baseline: untreated,viability,89.5%
COc1ccc([C@@H]2CC(=O)c3c(O)cc(O[C@@H]4O[C@H](CO[C@@H]5O[C@@H](C)[C@H](O)[C@@H](O)[C@H]5O)[C@@H](O)[C@H](O)[C@H]4O)cc3O2)cc1O,A549,"cell migration, scratch",,"150 µg/mL, 24 h",,gap closure,4.65 ± 0.45%
COc1cc(CNC(=O)C[C@H](C)CCC=C(C)C)ccc1OCc1cn(-c2ccc([N+](=O)[O-])cc2)nn1,SF-539 CNS cancer cells,SRB,,"10 µM, 48 h",,growth percent,43.1%
CC(=C(c1ccc(O)cc1)c1ccc(Cl)cc1)c1ccc(Cl)cc1,SK-MEL-2,"cell growth or viability, SRB",,,,GI50,0.8 µM
COc1cc(O)c(-c2c(O)cc(OC)c3c2ccc2cc(O)ccc23)c2ccc3ccccc3c12,BV-2,"ELISA, refers to: TNF-α",,"concentration not given, pretreatment, with: LPS",,cytokine release,decreased
CN1CCN(C(=O)N(CCCCCCC(=O)NO)c2ccc(-c3ccc4cnn(C)c4c3)cc2)CC1,MM1.S,"immunoblot, refers to: histone H3 and H4",,"30 to 1000 nM, 6 h",,acetylation,increased
O=C1NCC(Cc2ccccc2)N(CC2CCCN2CC(CC2CCCCC2)N2CC(Cc3ccc(O)cc3)N(CCc3ccccc3)C(=O)C2=O)C1=O (stereo not drawn),WM 266-4,"MAPK and PI3K activation, flow cytometry",,"concentration not given, 48 h",baseline: untreated,increase in dual-inactive cells,~10%
O=Cc1c(O)ccc2ccccc12,HUVEC,"RNA sequencing, refers to: BMP2",,"75 µM, 24 h",baseline: DMSO,log2 fold change,3.05
CCN(CC)CCNC(=S)Nc1ccc2nc(N3CCN(CC)CC3)cc(C)c2c1,BCR-ABL1+ BRCA1-deficient 32Dcl3,refers to: GFP-RAD52 foci,,"2.5 µM, with: cisplatin",,cells without foci,71.9 ± 4.1%
COc1cc(CNC(=O)C[C@H](C)CCC=C(C)C)ccc1OCc1cn(-c2cccc([N+](=O)[O-])c2)nn1,CCRF-CEM,SRB,,"10 µM, 48 h",,growth,85.6%
CC(=O)OC[C@H]1O[C@@H](Sc2sc(C(=O)c3ccc(Br)cc3)c(N)c2-c2nc3ccccc3s2)[C@H](OC(C)=O)[C@@H](OC(C)=O)[C@H]1OC(C)=O,SF-539,SRB,,"10 µM, 48 h",baseline: untreated,growth,95.2%
COc1cc(CNC(=O)C[C@H](C)CCC=C(C)C)ccc1OCc1cn(-c2cccc(Cl)c2)nn1,CCRF-CEM,SRB,,"10 µM, 48 h",,growth,76.5%
CCCN(CCC)c1ncnc2c1cnn2-c1ccc(C)c(C)c1,primary rat pancreatic islets,,,"30 µM, 48 h",baseline: equimolar EUK-134,glucose-stimulated insulin secretion,increased

# Some of these lines once more:
Structure (SMILES),cell line,test,system,setting,how to read,quantity,result
CCCCCCCCN(CCC(=O)Nc1ccccc1)C(=O)c1ccccn1,HGPS fibroblasts,immunofluorescence,,"2 µM, 408 h",baseline: vehicle,progerin mislocalisation,~36%
O=C(N[C@@H](Cc1coc2ccccc12)B(O)O)[C@@H]1C[C@H]2CC[C@@H]1O2,MM1.S,Caspase-Glo,,"concentration not given, 72 h",,caspase-3/7 activity,> 3.5 fold
O=C1Nc2ccccc2/C1=N\Nc1nnc2n1N=C(c1ccc(Cl)cc1)CS2,Hs-578T,"cell growth or viability, SRB",,10 µM,,inhibition,14%
C=CC(=O)Oc1ccc(Cl)cc1C(=O)Nc1ccc([N+](=O)[O-])cc1Cl,C4-2B MDVR cells,total cell number,,"0.5 µM, 5 days",,cell growth,decreased
Cn1nnc2c(C#N)ncn2c1=O,U-87 MG lacking MGMT,"cell viability, Alamar Blue",,"concentration not given, 7 days",baseline: temozolomide,fold loss of activity,10 fold
CCCC[C@H](NC(=O)[C@H](Cc1ccccc1)NC(=O)[C@H](Cc1c[nH]cn1)NC(=O)CCNC(=O)[C@@H](NC(=O)[C@H](C)NC(=O)[C@H](Cc1c[nH]c2ccccc12)NC(=O)[C@H](CCC(N)=O)NC(=O)[C@H](N)Cc1ccc(O)cc1)C(C)C)C(N)=O,NCI-H1299 expressing BRS-3,"EGFR transactivation, Western blot",,100 nM,,EGFR tyrosine phosphorylation,increased
